# Results from different studies.
# A part holds a random share of what one study measured.

# Block 1
# Target: Histone acetyltransferase KAT6A, winged helix 1, GST fusion (KAT6A, Homo sapiens, UniProt Q92794, residues 1-85)
# Method: protein binding microarray
# Molecule type: double-stranded DNA, one strand shown
# Sample: in vitro
# Tested at: not given
# Setting: 8-mer, flanks averaged, mean of 2 arrays, mostly near background
# Baseline: not given
# Reading: higher = stronger binding
# Residues (chain): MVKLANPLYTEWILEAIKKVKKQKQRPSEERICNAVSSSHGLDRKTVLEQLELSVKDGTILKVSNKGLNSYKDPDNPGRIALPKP
Strand,E-score
GCAATTGA,0.0453
AGGCCTAT,-0.226
GAAGACTA,-0.0855
AAACGTTT,-0.123
CTTAGTCC,0.00647
ACCACCCT,-0.217
ACCTATGC,0.0869

# Block 2
# Target: PABPC1L2, full length, GST fusion (mouse, UniProt A0ABA7IW68)
# Method: RNAcompete
# Molecule type: RNA
# Sample: in vitro
# Tested at: 20 nM
# Setting: 7-mer, probes averaged, single round
# Baseline: mean of 7-mers
# Reading: higher = stronger binding
# Construct (chain): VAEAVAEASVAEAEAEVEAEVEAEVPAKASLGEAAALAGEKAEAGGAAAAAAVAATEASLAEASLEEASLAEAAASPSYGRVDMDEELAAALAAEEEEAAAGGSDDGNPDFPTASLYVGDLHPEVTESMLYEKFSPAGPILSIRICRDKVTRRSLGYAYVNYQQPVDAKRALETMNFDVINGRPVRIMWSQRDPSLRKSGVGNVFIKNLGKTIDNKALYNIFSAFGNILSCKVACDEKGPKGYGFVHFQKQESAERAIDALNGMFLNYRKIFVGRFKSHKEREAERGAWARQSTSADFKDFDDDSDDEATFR
Strand,7-mer Z-score
CAGAAUC,-0.00833
AGAUUGU,-0.365
AGCUACA,-0.0844
UAAUAGG,-0.0609
UCCCGAU,-0.306
ACGUAGU,-0.238

# Block 3
# Target: Interferon regulatory factor 7, full length, phosphomimetic (IRF7, Homo sapiens, UniProt Q92985, residues 1-503, S471D/S472D/S475D/S476D/S477D/S483D/S484D/S487D)
# Sequence of UniProt Q92985 (whole entry, unmodified, looked up): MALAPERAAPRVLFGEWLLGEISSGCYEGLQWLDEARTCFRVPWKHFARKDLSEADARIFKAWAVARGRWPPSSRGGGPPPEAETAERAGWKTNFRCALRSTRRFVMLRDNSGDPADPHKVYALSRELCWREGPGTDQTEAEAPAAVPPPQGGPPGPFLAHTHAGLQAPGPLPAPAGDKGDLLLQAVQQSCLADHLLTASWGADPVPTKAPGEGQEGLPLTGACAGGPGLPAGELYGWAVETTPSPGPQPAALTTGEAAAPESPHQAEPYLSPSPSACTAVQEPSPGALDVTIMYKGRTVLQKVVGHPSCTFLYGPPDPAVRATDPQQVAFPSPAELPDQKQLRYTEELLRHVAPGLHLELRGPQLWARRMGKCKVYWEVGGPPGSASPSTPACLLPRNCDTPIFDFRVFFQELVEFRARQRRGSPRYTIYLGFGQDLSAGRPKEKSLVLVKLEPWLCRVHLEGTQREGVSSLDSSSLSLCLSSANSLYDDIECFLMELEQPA
# Method: protein-binding microarray
# Molecule type: double-stranded DNA, one strand shown
# Sample: in vitro
# Tested at: 2200 nM top
# Setting: 60-bp whole probe
# Added: salmon DNA 0.4 mg/ml
# Baseline: random background probes
# Reading: higher = stronger binding
# Constant ends, left off below: GCCTAGCAC … GTCTTGATTCGCTTGACGCTGCTG
Strand,fitted relative affinity [z-score]
GACGGTCTCCTTCTCCTGAGGTGCTAG,0.394
GACGGTATCGATACTGGGGACGTGCTA,0.187
GACGATATCGGGTATCGAGAAGTGCTA,-0.0211
TTAGGTTTCGGGTTTCGGGTAGTGCTA,10.1
TTAGATCTCAGTCTCGATCAGTGCTAG,0.165
TTACATATGTTTTTCATTTTGTGCTAG,3.12

# Other studies, line by line
Molecule,target,assay,test system,setting,scale,endpoint,result
"PhoQ, residues 284 288 289 292 302 303 ASASEQ","PhoP, residues 12 14 15 18 19 AYFRS (Escherichia coli, UniProt P23836)","Sort-seq, item: YFP reporter",E. coli,"PhoQ-PhoP variant library, added: 10 µM Mg2+","baseline: high Mg2+ state, higher = stronger signaling",fold induction,7.55

# A few entries again (block 3):
Strand,fitted relative affinity [z-score]
GACGGTCTCCTTCTCCTGAGGTGCTAG,0.394
GACGGTATCGATACTGGGGACGTGCTA,0.187
GACGATATCGGGTATCGAGAAGTGCTA,-0.0211
